Measurements collected from several papers.
Each line is one published result; not all experiments were run side by side. Numbers after ± are the reported error.
NMBR: Neuromedin-B receptor (NMBR, Homo sapiens, UniProt P28336)
CTSL: Procathepsin L (CTSL, Homo sapiens, UniProt P07711)
PDGFRB: Platelet-derived growth factor receptor beta (PDGFRB, Homo sapiens, UniProt P09619)
KDR: Vascular endothelial growth factor receptor 2 (KDR, Homo sapiens, UniProt P35968)

COC1CCC(N(C(=O)C2CCC(C)CC2)c2cc(C3=CCCCC3)sc2C(=O)O)CC1 (stereo not shown)  IC50 (Probable UDP-N-acetylglucosamine--peptide N-acetylglucosaminyltransferase SPINDLY, 3 TPR truncation (SPY, Arabidopsis thaliana, UniProt Q96301); self-fucosylation, inhibitor; 30 min preincubation, added: GDP-fucose 50 µM): 13300 nM
Nc1ccc(C(=O)NOCc2ccccc2)cc1[N+](=O)[O-]  IC50 (NAD-dependent protein deacylase sirtuin-6 (SIRT6, Homo sapiens, UniProt Q8N6T7); enzyme activity, inhibitor, fluorescence): 76400 nM
COC(=O)C[C@H](NC(=O)[C@H](C)NC(=O)[C@@H](NC(=O)OCc1ccccc1)C(C)C)C(=O)CF  IC50 (Caspase-10 (CASP10, Homo sapiens, UniProt Q92851); enzyme activity, inhibitor, fluorescence): 116 nM
Cc1ncc2c(n1)CN(C(=O)Nc1nc(-c3cccs3)ccc1N)C2  IC50 (Polyamine deacetylase HDAC10 (HDAC10, Homo sapiens, UniProt Q969S8); deacetylase activity, inhibitor, recombinant enzyme): > 30000 nM
Cn1c(=O)c2c(nc(OC3CCN(C(=O)C4CC4)CC3)n2Cc2ccccc2F)n(C)c1=O  IC50 (Aldehyde dehydrogenase 1A1 (ALDH1A1, Homo sapiens, UniProt P00352)): 153 ± 49 nM
O=C(O)c1ccc2[nH]cc(-c3ccc4cc(O)ccc4c3)c2c1  IC50 (Microtubule-associated protein tau (MAPT, Homo sapiens, UniProt P10636); amyloid aggregation, inhibitor, fluorescence): 24000 nM
CSCC[C@H](NC(=O)[C@H](CC(C)C)NC(=O)[C@H](Cc1cnc[nH]1)NC(=O)CNC(=O)[C@@H](NC(=O)[C@H](C)NC(=O)[C@H](Cc1c[nH]c2ccccc12)NC(=O)[C@H](Cc1cnc[nH]1)NC(=O)[C@H](CC(N)=O)NC(=O)CN)C(C)C)C(N)=O  IC50 (NMBR; NMBR activity, cell-based): 37 to 75 nM
CC(C)CCN(CCCc1ccccc1)c1nc(C#N)nc(N2CCOCC2)n1  IC50 (CTSL; enzyme activity, inhibitor, fluorescence): 35 nM
COc1cc2nccc(Oc3ccc(NC(=S)N4CCC(F)(F)C4)c(Cl)c3)c2cc1C(N)=O  IC50 (PDGFRB): 974 nM
O=c1c2ccccc2on1-c1ccccc1  IC50 (Histone deacetylase 5 (HDAC5, Homo sapiens, UniProt Q9UQL6); enzyme activity, inhibitor): > 10000 nM
Cc1ccc(O)c(C)c1OCC(C)N (stereo not shown)  IC50 (Voltage-gated inwardly rectifying potassium channel KCNH2 (KCNH2, Homo sapiens, UniProt Q12809, Y652A); inhibitor; CHO): 42600 ± 4600 nM
CC(C)C[C@@H](CN[C@@H](Cc1ccc(Cl)cc1)C(N)=O)NC(=O)[C@H](Cc1c[nH]cn1)NC(=O)CNC(=O)[C@@H](NC(=O)[C@H](C)NC(=O)[C@H](Cc1c[nH]c2ccccc12)NC(=O)[C@H](CCC(N)=O)NC(=O)[C@H](N)Cc1ccccc1)C(C)C  IC50 (NMBR; inositol phosphate generation, antagonist; Balb 3T3 expressing NMBR; added: neuromedin B 1 nM): > 10000 nM
OC(c1ccccc1)(c1ccccc1)c1cccs1  IC50 (Intermediate conductance calcium-activated potassium channel protein 4 (KCNN4, Homo sapiens, UniProt O15554); ion current, inhibitor, patch clamp): 1500 nM
COc1ccc2c(c1OCc1ccccc1)CC(C(=O)O)N(c1nc3ccccc3s1)C2 (stereo not shown)  IC50 (Type-2 angiotensin II receptor (AGTR2, Homo sapiens, UniProt P50052); cell-free assay, TR-FRET): ~200 nM
O=S(=O)(Cc1ccccc1Cl)Nc1ccc(Oc2ncccc2-c2ccnc(N[C@H]3CCCNC3)n2)cc1F  IC50 (Serine/threonine-protein kinase/endoribonuclease IRE1, RNase domain (ERN1, Homo sapiens, UniProt O75460); RNase activity, inhibitor; added: XBP1 mini-substrate): 6 ± 1.7 nM
O=C(Nc1ccc(Cl)c(-c2nc3ncccc3o2)c1)c1cccs1  IC50 (Nucleoside transporter 1 (Plasmodium vivax, UniProt A5K8B0); yeast growth; purine auxotrophic yeast expressing target; 15 to 17 h, added: adenosine 1 mM): 234 ± 41 nM
Cc1nc(-c2ccc(NC(=O)c3cccs3)cc2Cl)no1  IC50 (Epidermal growth factor receptor (EGFR, Homo sapiens, UniProt P00533); enzyme activity, Kinase-Glo luminescence): 4780 ± 1230 nM
COc1cc2nccc(Oc3ccc(NC(=S)NC4CCOCC4)c(Cl)c3)c2cc1C(N)=O  IC50 (KDR): 339 nM
O=C1C2=C(Nc3ccccc3SC2c2ccc(F)cc2)c2ccccc21 (racemic)  IC50 (Cytochrome b (MT-CYB, Homo sapiens, UniProt P00156); enzyme activity, inhibitor): > 5000 nM
COc1ccc(O[C@@H]2O[C@H](COS(=O)(=O)O)[C@H](OS(=O)(=O)O)[C@H](O[C@@H]3O[C@H](C(=O)O)[C@@H](O[C@@H]4O[C@H](COS(=O)(=O)O)[C@H](OS(=O)(=O)O)[C@H](O[C@@H]5O[C@H](C(=O)O)[C@@H](OS(=O)(=O)O)[C@H](O)[C@H]5O)[C@H]4NC(C)=O)[C@H](O)[C@H]3O)[C@H]2NC(C)=O)cc1  IC50 (Midkine (Homo sapiens, UniProt P21741); heparin hexasaccharide binding, inhibitor, fluorescence polarisation competition; added: fluorescein-labelled hexasaccharide probe): 136000 nM
C=CCNC(=O)[C@H](CCc1ccccc1)NC(=O)[C@H](CC(=O)NCC(C)(C)C)NC(=O)CCc1ccccc1  IC50 (PSMB6/PSMB7 (Homo sapiens, UniProt P28072+Q99436); inhibitor): 64000 nM
COc1cc2nccc(Oc3ccc(NC(=S)NCCC#N)c(Cl)c3)c2cc1C(N)=O  IC50 (PDGFRB): 255 nM
C=CC1C(OC2OC(CO)C(O)C(O)C2O)OC=C(C(=O)OC)C1C=CCC(=O)OC (stereo not shown)  IC50 (Alpha-glucosidase MAL12 (MAL12, Saccharomyces cerevisiae S288c, UniProt P53341); enzyme activity, inhibitor, absorbance): > 100000 nM
O=C(O)CCC(=O)NNC(=O)c1nccc2ccccc12  IC50 (Egl nine homolog 1 (EGLN1, Homo sapiens, UniProt Q9GZT9); inhibitor, AlphaScreen; bimodal curve, rough estimate, added: 2 µM 2-oxoglutarate): > 300000 nM
CCC(c1nnnn1Cc1cccs1)N1CCN(c2nc3cc(OC)cc(F)c3s2)CC1 (stereo not shown)  IC50 (Deoxyribonuclease-1 (DNASE1, Bos taurus, UniProt P00639); enzyme activity, inhibitor, fluorescence DNA degradation; pH 7.5, added: FITC-labelled DNA substrate): 136000 nM
OCc1cccc(S[C@@H]2O[C@H](CO)[C@@H](O)[C@H](O)[C@H]2O)c1  IC50 (Sodium/glucose cotransporter 1 (SLC5A1, Homo sapiens, UniProt P13866); transporter uptake, inhibitor, radiometric): 12000 nM
CC[C@H](C)[C@@H]1NC(=O)[C@H](CCCNC(=N)N)NC(=O)[C@H](CCCNC(=N)N)NC(=O)[C@H](CC(C)C)NC(=O)[C@@H](NC(=O)[C@H](C)NC(=O)[C@H](C)NC(C)=O)CSCc2ccc3c(c2)CCc2cc(ccc2-3)CSC[C@@H](C(=O)N[C@H](C(=O)N[C@@H](CC(N)=O)C(=O)N[C@@H](CC(C)C)C(=O)N[C@@H](CCCNC(=N)N)C(=O)N[C@@H](CCC(N)=O)C(=O)N[C@@H](CCCCN)C(=O)N[C@@H](CC(C)C)C(=O)N[C@@H](CC(C)C)C(=O)N[C@@H](CC(N)=O)C(N)=O)C(C)C)NC(=O)[C@H](CC(=O)O)NC(=O)CNC1=O  IC50 (Induced myeloid leukemia cell differentiation protein Mcl-1 (MCL1, Homo sapiens, UniProt Q07820); ligand displacement, FP): 148 nM
COc1cc2nccc(Oc3ccc(NC(=S)NCc4ccncc4)c(Cl)c3)c2cc1C(N)=O  IC50 (KDR): 196 nM
CC(C)=CCC1CC(=O)CC(C(C)(C)O)OC(=O)C23C(=C(C)C)OC(C)(C)C2CCC13C (stereo not shown)  IC50 (Beta-secretase 1 (Mus musculus, UniProt P56818); enzyme activity in cells, inhibitor): 136 nM
Cc1ccc2nc(C)n(/N=C/c3ccc(C(=O)O)cc3)c(=O)c2c1  IC50 (Serine protease 1 (PRSS1, Bos taurus, UniProt P00760); enzyme activity, inhibitor): 342000 nM
COc1cc2nccc(Oc3ccc(NC(=S)Nc4ccccc4)c(Cl)c3)c2cc1C(N)=O  IC50 (PDGFRB): 194 nM
C[C@]1(c2nc3c(C(N)=O)cccc3[nH]2)CCCN1CCOCCOCCOCCOCCOCCOCCNc1cccc2c1C(=O)N(C1CCC(=O)NC1=O)C2=O (stereo partly shown)  IC50 (Poly [ADP-ribose] polymerase 2 (PARP2, Homo sapiens, UniProt Q9UGN5); enzyme activity, inhibitor): 21 nM
COc1ccc(-c2cc(C(F)(F)F)nc(S(=O)(=O)CCC(=O)Nc3ccc(C)cc3)n2)cc1  IC50 (Bifunctional 3'-5' exonuclease/ATP-dependent helicase WRN (WRN, Homo sapiens, UniProt Q14191); DNA unwinding, inhibitor, TAMRA dequenching; 10 nM full-length enzyme, 5 µM trap DNA, added: 500 nM DNA substrate, 60 µM ATP): 235 nM
N#Cc1nc(N2CCOCC2)nc(N(CCC2CCNCC2)Cc2ccc(F)cc2)n1  IC50 (CTSL; enzyme activity, inhibitor, fluorescence): 969 nM

Repeated from above:
O=C(Nc1ccc(Cl)c(-c2nc3ncccc3o2)c1)c1cccs1  IC50 (Nucleoside transporter 1 (Plasmodium vivax, UniProt A5K8B0); yeast growth; purine auxotrophic yeast expressing target; 15 to 17 h, added: adenosine 1 mM): 234 ± 41 nM
CC[C@H](C)[C@@H]1NC(=O)[C@H](CCCNC(=N)N)NC(=O)[C@H](CCCNC(=N)N)NC(=O)[C@H](CC(C)C)NC(=O)[C@@H](NC(=O)[C@H](C)NC(=O)[C@H](C)NC(C)=O)CSCc2ccc3c(c2)CCc2cc(ccc2-3)CSC[C@@H](C(=O)N[C@H](C(=O)N[C@@H](CC(N)=O)C(=O)N[C@@H](CC(C)C)C(=O)N[C@@H](CCCNC(=N)N)C(=O)N[C@@H](CCC(N)=O)C(=O)N[C@@H](CCCCN)C(=O)N[C@@H](CC(C)C)C(=O)N[C@@H](CC(C)C)C(=O)N[C@@H](CC(N)=O)C(N)=O)C(C)C)NC(=O)[C@H](CC(=O)O)NC(=O)CNC1=O  IC50 (Induced myeloid leukemia cell differentiation protein Mcl-1 (MCL1, Homo sapiens, UniProt Q07820); ligand displacement, FP): 148 nM
COc1ccc(O[C@@H]2O[C@H](COS(=O)(=O)O)[C@H](OS(=O)(=O)O)[C@H](O[C@@H]3O[C@H](C(=O)O)[C@@H](O[C@@H]4O[C@H](COS(=O)(=O)O)[C@H](OS(=O)(=O)O)[C@H](O[C@@H]5O[C@H](C(=O)O)[C@@H](OS(=O)(=O)O)[C@H](O)[C@H]5O)[C@H]4NC(C)=O)[C@H](O)[C@H]3O)[C@H]2NC(C)=O)cc1  IC50 (Midkine (Homo sapiens, UniProt P21741); heparin hexasaccharide binding, inhibitor, fluorescence polarisation competition; added: fluorescein-labelled hexasaccharide probe): 136000 nM
